# Measurements gathered from unrelated publications.
# Compare with care: the assays were run in different laboratories.
# Organism: Pseudomonas aeruginosa
SMILES,assay,test system,conditions,scale,MIC
CC[C@H](C)[C@H](NC(=O)[C@H](CC(C)C)NC(=O)[C@H](CC(C)C)NC(=O)[C@H](CC(C)C)NC(=O)[C@@H](NC(=O)[C@@H](NC(=O)[C@H](CCCNC(=N)N)NC(=O)[C@H](CCCNC(=N)N)NC(=O)[C@H](CCCNC(=N)N)NC(=O)[C@H](CCCNC(=N)N)NC(=O)[C@H](CC(C)C)NC(=O)[C@H](CCCNC(=N)N)NC(=O)[C@H](CO)NC(=O)[C@@H](N)CO)[C@@H](C)CC)C(C)C)C(=O)N[C@@H](CO)C(=O)N[C@@H](CCCNC(=N)N)C(=O)N[C@@H](CCCNC(=N)N)C(=O)N[C@@H](CCCNC(=N)N)C(=O)N[C@@H](CCCNC(=N)N)C(N)=O,broth microdilution,ATCC 27853,highest value reported,,8 µM
CC(C)(C)Oc1ccc(CC2NC(=O)C(C(=O)NC(C(=O)NC3C(=O)N4C3SC(C)(C)C4C(=O)O)c3ccccc3)=C2O)cc1 (centres unmarked),,pvcA mutant,,,25 µg/mL
CC[C@H](C)[C@H](N)C(=O)N[C@@H](CC(C)C)C(=O)NCC(=O)N[C@H](CCCNC(=N)N)C(=O)N[C@H](C(=O)N[C@@H](Cc1ccccc1)C(=O)N[C@@H](CCCCN)C(=O)NCC(=O)N[C@H](C(=O)N[C@@H](CCCCN)C(=O)N[C@@H](CC(=O)O)C(=O)N[C@H](C(=O)N[C@@H](CC(C)C)C(N)=O)[C@@H](C)CC)[C@@H](C)CC)[C@@H](C)CC,broth microdilution,"ATCC BAA-427, Mueller-Hinton broth","16 h, 37 °C",,50 µM
CC1(C)S[C@@H]2[C@H](NC(=O)[C@H](N)c3ccccc3)C(=O)N2[C@H]1C(=O)O,,pqsE mutant,,,200 µg/mL
CC[C@H](C)[C@H](NC(=O)[C@H](CCCCN)NC(=O)[C@H](CCCCN)NC(=O)[C@H](Cc1ccccc1)NC(=O)[C@@H](NC(=O)[C@@H](NC(=O)[C@H](CCCNC(=N)N)NC(=O)[C@H](Cc1ccccc1)NC(=O)[C@@H](NC(=O)[C@H](CCCCN)NC(=O)[C@H](CCCCN)NC(=O)[C@@H](N)CCSC)[C@@H](C)CC)C(C)C)[C@@H](C)CC)C(=O)N[C@@H](CC(C)C)C(=O)N[C@@H](CCCCN)C(=O)N[C@@H](CCCNC(=N)N)C(=O)N[C@@H](CC(C)C)C(=O)N[C@H](C(=O)N[C@H](C(=O)O)C(C)C)[C@@H](C)CC,,CMCC 10104,16 to 18 h,,32 µg/mL
CC[C@H](C)[C@H](NC(=O)CNC(=O)[C@H](CC(=O)O)NC(=O)[C@H](CCCNC(=N)N)NC(=O)[C@@H](NC(=O)[C@H](CC(N)=O)NC(=O)[C@H](CCCNC(=N)N)NC(=O)CNC(=O)[C@@H](NC(=O)[C@H](CCCCN)NC(=O)[C@H](CCC(=O)O)NC(=O)[C@@H](NC(=O)[C@H](CCCCN)NC(=O)[C@H](CCCCN)NC(=O)[C@H](Cc1ccccc1)NC(=O)[C@@H](NC(=O)[C@H](CCCCN)NC(=O)[C@H](Cc1c[nH]c2ccccc12)NC(=O)[C@@H](N)CCCNC(=N)N)[C@@H](C)CC)[C@@H](C)CC)C(C)C)C(C)C)C(=O)N[C@H](C(=O)N[C@@H](CCCCN)C(=O)N[C@@H](C)C(=O)NCC(=O)N1CCC[C@H]1C(=O)N[C@@H](C)C(=O)N[C@H](C(=O)N[C@@H](C)C(=O)N[C@H](C(=O)N[C@H](C(=O)NCC(=O)N[C@@H](CCC(N)=O)C(=O)N[C@@H](C)C(=O)N[C@@H](C)C(=O)N[C@H](C(=O)N[C@@H](C)C(=O)N[C@@H](C)C(=O)N[C@@H](CCCCN)C(N)=O)[C@@H](C)O)C(C)C)C(C)C)C(C)C)[C@@H](C)CC,,"KCCM 11328, Mueller-Hinton broth","16 h, 37 °C",growth inhibition over 99%,4 µM
O=C(O)c1cccc(C(=O)O)n1,,IMP-7 producer,"32 µg/mL, MIC of meropenem, together with: meropenem",,16 µg/mL
CC[C@H](C)[C@H](N)C(=O)N[C@@H](CCCNC(=N)N)C(=O)N[C@H](C(=O)N[C@@H](Cc1c[nH]c2ccccc12)C(=O)N[C@@H](Cc1ccccc1)C(=O)N[C@H](C(=O)N[C@@H](CCCCN)C(=O)N[C@H](C(=O)N[C@@H](CCCNC(=N)N)C(=O)N[C@@H](CCCCN)C(=O)N[C@@H](Cc1c[nH]c2ccccc12)C(=O)N[C@@H](CCCCN)C(=O)N[C@@H](C)C(=O)N[C@H](C(=O)N[C@@H](Cc1ccc(O)cc1)C(=O)N[C@@H](Cc1c[nH]cn1)C(=O)N[C@H](C(N)=O)[C@@H](C)O)[C@@H](C)CC)C(C)C)[C@@H](C)CC)C(C)C,broth dilution,ATCC 27853,,,100 µM
CC[C@H](C)[C@H](NC(=O)[C@H](CC(C)C)NC(=O)[C@H](CCCNC(=N)N)NC(=O)[C@@H](N)CCCNC(=N)N)C(=O)N[C@@H](CCCNC(=N)N)C(=O)N[C@H](C(=O)N[C@@H](CC(C)C)C(=O)N[C@H](C(=O)NCC(=O)N1CCC[C@H]1C(=O)N[C@H](C(=O)N[C@H](C(=O)N[C@@H](Cc1ccc(O)cc1)C(=O)N[C@@H](CC(C)C)C(=O)N[C@@H](Cc1ccc(O)cc1)C(=O)N[C@@H](Cc1ccccc1)C(=O)N[C@@H](CCCCN)C(=O)N[C@@H](CC(C)C)C(=O)N[C@@H](CCC(N)=O)C(=O)N[C@@H](CC(C)C)C(=O)N[C@@H](CC(C)C)C(=O)N[C@@H](CCCCN)C(=O)N[C@@H](CCCCN)C(N)=O)[C@@H](C)CC)[C@@H](C)CC)[C@@H](C)O)[C@@H](C)O,,"KCTC 1637, Mueller-Hinton broth",24 h,,64 µM
N=C(N)NCCC[C@H](NC(=O)[C@@H](N)CCCNC(=N)N)C(=O)N[C@@H](Cc1c[nH]c2ccccc12)C(=O)N[C@@H](Cc1c[nH]c2ccccc12)C(=O)N[C@@H](Cc1ccccc1)C(=O)N[C@@H](CCC(N)=O)C(=O)N[C@@H](Cc1ccccc1)C(=O)N[C@@H](CCC(N)=O)C(=O)N[C@@H](Cc1ccccc1)C(=O)N[C@@H](CCCCN)C(N)=O,"broth microdilution, optical density",,,,570 µM
CC1NC(=O)C(C(=O)NC(C(=O)NC2C(=O)N3C2SC(C)(C)C3C(=O)O)c2ccccc2)=C1O (centres unmarked),broth microdilution,TonB-dependent receptor mutant,PA two-allele library,,25 µg/mL
C[C@@H](O)[C@H](NC(=O)[C@H](Cc1c[nH]c2ccccc12)NC(=O)[C@H](Cc1c[nH]c2ccccc12)NC(=O)[C@H](Cc1c[nH]c2ccccc12)NC(=O)[C@@H](NC(=O)[C@H](Cc1c[nH]c2ccccc12)NC(=O)[C@H](CCCNC(=N)N)NC(=O)[C@@H](N)CCCNC(=N)N)[C@@H](C)O)C(=O)N[C@@H](Cc1c[nH]c2ccccc12)C(=O)N[C@@H](CCCNC(=N)N)C(=O)N[C@@H](CCCNC(=N)N)C(N)=O,broth microdilution,"27853, Mueller-Hinton broth","24 h, 37 °C, lowest concentration, 95% inhibition, together with: BSA",,4 µM
CC1(C)SC2C(NC(=O)C(NC(=O)C3=C(O)C(c4ccccc4)NC3=O)c3ccccc3)C(=O)N2C1C(=O)O (centres unmarked),,fptA mutant,,,25 µg/mL
CC[C@H](C)[C@H](NC(=O)[C@H](CCCCN)NC(=O)[C@H](CCCNC(=N)N)NC(=O)[C@H](CCCNC(=N)N)NC(=O)[C@H](CC(C)C)NC(=O)[C@H](CCCCN)NC(=O)[C@H](CCCCN)NC(=O)[C@H](Cc1ccccc1)NC(=O)[C@H](CC(C)C)NC(=O)CNC(=O)[C@H](CCCNC(=N)N)NC(=O)[C@@H](N)CCCNC(=N)N)C(=O)N[C@@H](CCCCN)C(=O)N[C@@H](CCCCN)C(=O)NCC(=O)N[C@@H](Cc1ccccc1)C(=O)N[C@@H](CCCCN)C(=O)N[C@@H](CCCCN)C(=O)N[C@H](C(=O)N[C@@H](Cc1ccccc1)C(=O)N[C@@H](CCCCN)C(=O)N[C@@H](CCCNC(=N)N)C(=O)N[C@@H](CC(C)C)C(=O)N1CCC[C@H]1C(=O)N1CCC[C@H]1C(=O)N[C@H](C(=O)NCC(=O)N[C@H](C(=O)NCC(=O)N[C@H](C(=O)N[C@@H](CO)C(=O)O)C(C)C)C(C)C)C(C)C)[C@@H](C)CC,,CMCC 10104,highest concentration 50 µM,,10.3 µM
